Assay results pooled from the literature.
Protocols differ between the studies behind these lines. ± marks the error that the study gave.
Organism: SARS-CoV-2

SMILES	observed	technique	cells	strain	time	EC50
CC(=O)Oc1ccc(CCCCCCCCC(=O)c2c(OC(C)=O)cccc2OC(C)=O)cc1OC(C)=O	viral replication	MTT	HEK293T ACE2	Delta B.1.617.2		1.4 µM
Cc1ccc(N2CC3CCC(C2)N3C)cc1C(=O)N[C@H](C)c1cc(-c2cnn(C)c2)nc2ccccc12	viral replication			Nsp5 L50F/E166V		0.47 µM
N#Cc1ccc(N2N=C3c4ccc(C(=O)O)cc4CCC3C2C2CCCC2)cc1Cl (stereo not shown)	viral replication		Calu-3	B.1.617.2 Delta variant	72 h	3.82 µM
Oc1ccc(CCCCCCCCC(O)c2c(O)cccc2O)cc1O (stereo not shown)	viral replication	MTT	HEK293T ACE2	Alpha B.1.1.7		7.3 µM
CC1CC(c2ccc(C(=O)NS(C)(=O)=O)cc2)=NN1c1ccc(C#N)c(Cl)c1 (stereo not shown)	viral replication		Calu-3	B.1.617.2 Delta variant	72 h	33.2 µM
O=C(CCCCCCc1ccc(O)c(O)c1)c1c(O)cccc1O	viral replication	MTT	HEK293T ACE2	Alpha B.1.1.7		2.9 µM
Cc1cc(C(=O)O)ccc1C1=NN(c2ccc(C#N)c(Cl)c2)C(C)C1 (stereo not shown)	viral replication		Calu-3	B.1.617.2 Delta variant	72 h	29.2 µM
CC(C)C(=O)OC[C@H]1O[C@@](C#N)(n2ccc(N)nc2=O)[C@H](O)[C@@H]1O	viral replication		Calu-3	Beta		0.06 ± 0.01 µM
O=C(NC1CCN(c2ncnc3[nH]cnc23)CC1)c1cccc(NS(=O)(=O)c2ccc(C(F)(F)F)cc2)c1	viral replication		A549-ACE2	Delta variant	24 h	0.5 µM
CC1CC(c2ccc(C(=O)O)cc2)=NN1c1ccc(C#N)c(Cl)c1 (stereo not shown)	viral replication		Calu-3	B.1.617.2 Delta variant	72 h	54 µM
CC(C)(C)c1ccc(O)c(C(=O)Nc2ccc(CN)cc2)c1	viral replication			D614G		3.32 ± 1.97 µM
N#CC1(c2ccc3c(N)ncnn23)OC(COP(=O)(O)OP(=O)(O)OP(=O)(O)O)C(O)C1O (stereo not shown)	infectious virus yield		Vero C1008	Omicron BA.1	48 h	1.7 ± 0.08 µM
CC(C)CC(C(=O)N1CC2(CC1C#N)C(=O)Nc1ccccc12)N(C)C(=O)c1cc2c(F)cc(F)c(F)c2[nH]1 (stereo not shown)	viral replication		Vero E6-TMPRSS2	Omicron variants		0.019 µM
O=c1[nH]cnc2c(C3NC(COP(=O)(O)OP(=O)(O)OP(=O)(O)O)C(O)C3O)c[nH]c12 (stereo not shown)	infectious virus yield		Vero C1008	Omicron BA.1	48 h	0.38 ± 0.02 µM
O=C(CCCCCCCCCCc1ccc(O)c(O)c1)c1c(O)cccc1O	viral replication	MTT	HEK293T ACE2	Gamma P.1		16 µM
CC(C)c1ccc(C(=O)Nc2ccc(CN)cc2)c(O)c1	viral replication			D614G		9.91 ± 1.07 µM
